Measured values from different studies.
Numbered parts are unrelated; each lists some results of a single study. Several values in a cell are separate wells, animals, samples, runs or records.
Sequence of UniProt P42336 (whole entry, unmodified, looked up): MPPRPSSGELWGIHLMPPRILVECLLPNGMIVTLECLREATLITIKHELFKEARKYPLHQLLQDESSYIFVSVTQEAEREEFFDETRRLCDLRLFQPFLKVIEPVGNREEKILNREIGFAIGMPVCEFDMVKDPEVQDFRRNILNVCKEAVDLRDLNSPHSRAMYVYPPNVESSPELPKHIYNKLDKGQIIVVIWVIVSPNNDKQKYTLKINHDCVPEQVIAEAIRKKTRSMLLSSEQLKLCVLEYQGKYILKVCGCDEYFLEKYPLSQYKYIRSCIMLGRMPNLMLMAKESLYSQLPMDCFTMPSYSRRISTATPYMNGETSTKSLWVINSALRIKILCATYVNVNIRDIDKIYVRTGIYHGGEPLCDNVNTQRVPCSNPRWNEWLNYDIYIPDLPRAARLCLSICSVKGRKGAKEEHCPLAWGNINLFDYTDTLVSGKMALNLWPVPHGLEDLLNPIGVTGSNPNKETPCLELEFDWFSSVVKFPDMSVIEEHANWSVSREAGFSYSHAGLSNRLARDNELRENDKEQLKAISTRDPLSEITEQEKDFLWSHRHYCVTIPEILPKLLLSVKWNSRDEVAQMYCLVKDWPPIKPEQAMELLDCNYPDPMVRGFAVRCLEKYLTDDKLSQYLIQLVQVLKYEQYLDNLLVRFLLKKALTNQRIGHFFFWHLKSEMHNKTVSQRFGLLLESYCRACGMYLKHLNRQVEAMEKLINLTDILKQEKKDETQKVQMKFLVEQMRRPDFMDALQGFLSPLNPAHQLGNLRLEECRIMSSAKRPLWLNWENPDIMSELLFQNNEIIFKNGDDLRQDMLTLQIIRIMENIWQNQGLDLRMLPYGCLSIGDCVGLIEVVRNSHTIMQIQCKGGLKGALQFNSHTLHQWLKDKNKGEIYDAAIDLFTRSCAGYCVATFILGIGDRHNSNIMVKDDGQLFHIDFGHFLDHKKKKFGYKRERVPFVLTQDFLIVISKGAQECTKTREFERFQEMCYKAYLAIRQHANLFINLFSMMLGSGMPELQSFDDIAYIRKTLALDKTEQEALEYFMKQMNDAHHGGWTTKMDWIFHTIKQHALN
Sequence of UniProt Q16512 (whole entry, looked up): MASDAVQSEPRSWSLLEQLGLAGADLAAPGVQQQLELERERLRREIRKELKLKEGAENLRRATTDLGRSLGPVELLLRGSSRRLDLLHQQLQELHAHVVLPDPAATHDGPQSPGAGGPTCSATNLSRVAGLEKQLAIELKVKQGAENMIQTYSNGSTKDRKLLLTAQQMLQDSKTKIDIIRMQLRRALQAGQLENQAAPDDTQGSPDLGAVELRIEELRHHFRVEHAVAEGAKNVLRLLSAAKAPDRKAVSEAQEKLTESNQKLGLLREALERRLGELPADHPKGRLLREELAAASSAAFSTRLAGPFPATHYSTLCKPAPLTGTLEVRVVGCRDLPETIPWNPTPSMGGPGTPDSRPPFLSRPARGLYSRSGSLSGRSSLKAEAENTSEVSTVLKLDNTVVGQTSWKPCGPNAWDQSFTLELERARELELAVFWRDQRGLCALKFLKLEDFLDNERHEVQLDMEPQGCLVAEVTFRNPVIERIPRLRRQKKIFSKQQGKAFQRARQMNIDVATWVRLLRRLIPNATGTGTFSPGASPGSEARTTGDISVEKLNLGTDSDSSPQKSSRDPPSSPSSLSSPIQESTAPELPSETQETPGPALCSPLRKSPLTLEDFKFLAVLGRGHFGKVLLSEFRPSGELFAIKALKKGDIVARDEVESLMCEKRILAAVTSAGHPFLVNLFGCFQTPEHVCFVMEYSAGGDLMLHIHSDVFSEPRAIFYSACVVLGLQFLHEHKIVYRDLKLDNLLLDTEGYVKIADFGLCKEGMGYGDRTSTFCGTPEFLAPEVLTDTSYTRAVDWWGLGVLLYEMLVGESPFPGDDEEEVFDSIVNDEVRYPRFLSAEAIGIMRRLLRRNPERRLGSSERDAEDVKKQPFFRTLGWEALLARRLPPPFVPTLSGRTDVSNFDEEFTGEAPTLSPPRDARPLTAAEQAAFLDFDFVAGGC
Sequence of UniProt P27448 (whole entry, looked up): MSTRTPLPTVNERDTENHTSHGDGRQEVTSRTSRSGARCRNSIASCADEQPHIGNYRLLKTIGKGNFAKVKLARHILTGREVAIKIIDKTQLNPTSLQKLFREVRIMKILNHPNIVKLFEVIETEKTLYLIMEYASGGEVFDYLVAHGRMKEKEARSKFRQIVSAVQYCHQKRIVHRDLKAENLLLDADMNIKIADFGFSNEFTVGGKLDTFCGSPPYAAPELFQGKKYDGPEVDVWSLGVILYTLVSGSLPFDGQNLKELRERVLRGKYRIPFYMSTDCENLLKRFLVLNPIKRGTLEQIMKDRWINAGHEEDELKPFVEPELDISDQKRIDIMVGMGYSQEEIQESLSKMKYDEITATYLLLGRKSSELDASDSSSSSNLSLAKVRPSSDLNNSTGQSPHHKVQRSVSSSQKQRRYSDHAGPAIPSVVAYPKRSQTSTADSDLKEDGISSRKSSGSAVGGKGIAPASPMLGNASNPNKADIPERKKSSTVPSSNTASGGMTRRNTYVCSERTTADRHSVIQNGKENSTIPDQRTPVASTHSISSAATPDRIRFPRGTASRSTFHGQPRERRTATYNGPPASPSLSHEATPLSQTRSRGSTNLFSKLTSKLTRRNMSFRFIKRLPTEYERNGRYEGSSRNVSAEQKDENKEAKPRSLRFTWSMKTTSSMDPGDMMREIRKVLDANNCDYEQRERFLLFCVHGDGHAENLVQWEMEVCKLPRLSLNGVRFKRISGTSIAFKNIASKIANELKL
Sequence of UniProt Q5VT25 (whole entry, looked up): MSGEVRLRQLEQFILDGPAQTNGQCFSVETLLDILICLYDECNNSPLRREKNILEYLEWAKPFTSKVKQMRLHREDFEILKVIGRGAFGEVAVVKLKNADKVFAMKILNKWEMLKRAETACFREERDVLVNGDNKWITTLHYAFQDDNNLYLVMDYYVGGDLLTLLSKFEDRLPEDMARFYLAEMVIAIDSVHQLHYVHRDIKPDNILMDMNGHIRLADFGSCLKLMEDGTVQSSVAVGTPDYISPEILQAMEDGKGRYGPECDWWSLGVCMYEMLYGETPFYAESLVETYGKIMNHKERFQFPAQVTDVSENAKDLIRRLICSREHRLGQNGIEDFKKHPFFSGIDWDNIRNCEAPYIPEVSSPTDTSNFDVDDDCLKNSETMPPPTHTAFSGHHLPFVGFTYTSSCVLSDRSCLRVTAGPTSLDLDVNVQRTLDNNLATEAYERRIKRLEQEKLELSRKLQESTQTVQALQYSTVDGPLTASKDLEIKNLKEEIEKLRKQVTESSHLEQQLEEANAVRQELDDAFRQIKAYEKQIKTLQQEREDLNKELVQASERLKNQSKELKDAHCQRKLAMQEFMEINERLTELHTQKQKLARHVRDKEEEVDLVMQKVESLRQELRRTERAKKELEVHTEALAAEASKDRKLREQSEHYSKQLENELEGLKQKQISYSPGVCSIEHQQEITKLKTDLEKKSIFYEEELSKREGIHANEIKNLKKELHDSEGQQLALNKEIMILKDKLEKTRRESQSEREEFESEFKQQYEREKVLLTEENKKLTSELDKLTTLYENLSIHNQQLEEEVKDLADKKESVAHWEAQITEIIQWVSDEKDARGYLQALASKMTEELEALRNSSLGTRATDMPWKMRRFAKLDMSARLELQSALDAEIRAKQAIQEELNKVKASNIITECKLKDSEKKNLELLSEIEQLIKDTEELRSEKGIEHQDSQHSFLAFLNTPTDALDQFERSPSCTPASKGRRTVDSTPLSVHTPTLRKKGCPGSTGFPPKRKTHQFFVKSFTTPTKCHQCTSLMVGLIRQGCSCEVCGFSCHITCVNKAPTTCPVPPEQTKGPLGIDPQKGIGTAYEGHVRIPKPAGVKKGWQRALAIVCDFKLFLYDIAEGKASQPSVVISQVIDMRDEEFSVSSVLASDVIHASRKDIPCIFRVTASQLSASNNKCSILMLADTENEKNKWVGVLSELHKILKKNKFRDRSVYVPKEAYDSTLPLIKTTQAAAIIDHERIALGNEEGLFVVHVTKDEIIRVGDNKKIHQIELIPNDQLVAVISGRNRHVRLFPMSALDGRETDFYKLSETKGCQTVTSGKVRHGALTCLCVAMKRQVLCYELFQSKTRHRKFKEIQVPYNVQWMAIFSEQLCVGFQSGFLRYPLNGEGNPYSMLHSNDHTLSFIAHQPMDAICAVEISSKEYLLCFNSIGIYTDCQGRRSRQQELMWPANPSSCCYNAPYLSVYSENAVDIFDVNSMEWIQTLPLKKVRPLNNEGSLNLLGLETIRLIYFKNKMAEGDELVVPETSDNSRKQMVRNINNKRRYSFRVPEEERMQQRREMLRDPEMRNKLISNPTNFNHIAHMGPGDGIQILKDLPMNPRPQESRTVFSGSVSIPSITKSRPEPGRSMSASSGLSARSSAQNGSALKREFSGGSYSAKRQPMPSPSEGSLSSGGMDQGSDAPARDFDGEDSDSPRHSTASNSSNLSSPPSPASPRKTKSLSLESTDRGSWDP

Block 1
Species: mouse
Medium: microsomes or S9
Tested at: 2 µM
Time: 0.5 h
SMILES | remaining compound
NC(=O)N1CCc2cc(NS(=O)(=O)c3cc(F)ccc3F)ccc21 | 20.5%
CC(C)c1nc(COc2ccccc2-c2ccnc(N)n2)no1 | 0.0527%
COc1cc(NC(=O)N2CCC(Cn3cncn3)CC2)ncn1 | > 100%
c1ccc2c(c1)n(CCN1CCCC1)c1nc(-c3ccc4c(c3)OCO4)cn21 | 33.5%
CCCOc1ccc(Oc2nc3ccccc3n3cnnc23)cc1 | 12.7%
COc1ccc(OC)c(NC(=O)C2Cn3cccc3C(=O)N2C)c1 (centres unmarked) | 13.4%
Cc1cc(=O)n(CCNC(=O)c2nc3nc(C)cc(C)n3n2)cn1 | 97.7%
COc1cc2c(c(OC)c1OC)-c1c(cc(OC)c(OC)c1OC)C[C@](C)(O)[C@@H](C)C2 | 20.2%
O=C(NNc1nc2ccccc2s1)c1ccccc1F | 0.499%
CC(C)COc1cc(=O)n2c(c1C(=O)NCCCN1CCCCC1)CCCCC2 | 15.2%
Cc1ccc2cc(CN(CCO)S(=O)(=O)c3ccc(C(C)(C)C)cc3)c(=O)[nH]c2c1C | 0.0886%
Cc1ccccc1-c1nc2ccccc2cc1Cn1nc(-c2cncnc2)c2cnc(N)nc21 | > 99%
CN(C[C@@H]1C[C@H](F)CN1Cc1cncnc1)c1cnc(C#N)cn1 | > 100%
O=S1(=O)N=C(NCCc2cccs2)c2ccccc21 | 13.8%

Block 2
Compound: C[C@@H]1[C@H](O)[C@@H](C)/C=C/C=C/C=C/C=C/C=C/C=C/C=C/[C@H](O[C@@H]2O[C@H](C)[C@@H](O)[C@H](N)[C@@H]2O)C[C@@H]2O[C@](O)(C[C@@H](O)C[C@@H](O)[C@H](O)CC[C@@H](O)C[C@@H](O)CC(=O)O[C@H]1C)C[C@H](O)[C@H]2C(=O)O
Organism: Leishmania donovani
Strain: DD8
Medium: promastigotes
conditions | promastigote number
60 µM, 48 h | 2.07e+06 and 2.1e+06
160 µM, 48 h | 1.55e+06 and 1.57e+06
3330 µM, 72 h | 1550 and 1250
6660 µM, 48 h | 1570 and 1250
66660 µM, 24 h | 1240 and 1350
1660 µM, 48 h | 101000 and 151000
160 µM, 72 h | 2.03e+06 and 2.06e+06
1660 µM, 24 h | 169000

Block 3
SMILES: O=C(Nc1cccnn1)N1CCC(=Cc2cccc(Oc3ccc(C(F)(F)F)cn3)c2)CC1
Read-out: cell-free assay
Technique: competition with immobilised ligand
Tested at: 1 µM
target | remaining binding [%]
Mast/stem cell growth factor receptor Kit, autoinhibited (KIT, Homo sapiens, UniProt P10721) | 100
Ephrin type-A receptor 4 (EPHA4, Homo sapiens, UniProt P54764) | 100
Mitogen-activated protein kinase 1 (MAPK1, Homo sapiens, UniProt P28482) | 92
Phosphatidylinositol 5-phosphate 4-kinase type-2 gamma (PIP4K2C, Homo sapiens, UniProt Q8TBX8) | 75
Phosphatidylinositol 4,5-bisphosphate 3-kinase catalytic subunit alpha isoform (PIK3CA, Homo sapiens, UniProt P42336, I800L) | 100
Tyrosine-protein kinase ABL1, phosphorylated (ABL1, Homo sapiens, UniProt P00519, H396P) | 100
Serine/threonine-protein kinase Nek2 (NEK2, Homo sapiens, UniProt P51955) | 100
NUAK family SNF1-like kinase 1 (NUAK1, Homo sapiens, UniProt O60285) | 86
Cyclin-dependent kinase-like 2 (CDKL2, Homo sapiens, UniProt Q92772) | 92
Serine/threonine-protein kinase DCLK1 (DCLK1, Homo sapiens, UniProt O15075) | 100
eIF-2-alpha kinase GCN2, C-terminal kinase domain (EIF2AK4, Homo sapiens, UniProt Q9P2K8, S808G) | 87
Phosphatidylinositol 4,5-bisphosphate 3-kinase catalytic subunit alpha isoform (PIK3CA, Homo sapiens, UniProt P42336, M1043I) | 65
Receptor-type tyrosine-protein kinase FLT3 (FLT3, Homo sapiens, UniProt P36888, F691L/ITD) | 100
Cyclin-dependent kinase-like 3 (CDKL3, Homo sapiens, UniProt Q8IVW4) | 81
Protein kinase C iota type (PRKCI, Homo sapiens, UniProt P41743) | 81
Phosphatidylinositol 4-phosphate 5-kinase type-1 gamma (PIP5K1C, Homo sapiens, UniProt O60331) | 66
Fibroblast growth factor receptor 3 (FGFR3, Homo sapiens, UniProt P22607) | 83
Transient receptor potential cation channel subfamily M member 6 (TRPM6, Homo sapiens, UniProt Q9BX84) | 98

Block 4
SMILES: COc1ccc(Cl)cc1NC(=O)Nc1cc(C)nc2ccccc12
Read-out: enzyme activity
Action: inhibitor
Tested at: 0.5 µM
Baseline: control
target | remaining activity
Serine/threonine-protein kinase MRCK alpha (CDC42BPA, Homo sapiens, UniProt Q5VT25) | 98.8%
Serine/threonine-protein kinase NLK (NLK, Homo sapiens, UniProt Q9UBE8) | 94.5%
Vascular endothelial growth factor receptor 3 (FLT4, Homo sapiens, UniProt P35916) | 100%
Serine/threonine-protein kinase Nek11 (NEK11, Homo sapiens, UniProt Q8NG66) | 94.6%
Tyrosine-protein kinase Fer (FER, Homo sapiens, UniProt P16591) | 92.4%
Homeodomain-interacting protein kinase 1 (HIPK1, Homo sapiens, UniProt Q86Z02) | 97.2%
LIM domain kinase 1 (LIMK1, Homo sapiens, UniProt P53667) | 87.1%
PAS domain-containing serine/threonine-protein kinase (PASK, Homo sapiens, UniProt Q96RG2) | 97.6%
Serine/threonine-protein kinase 25 (STK25, Homo sapiens, UniProt O00506) | 101%
Cyclin-dependent kinase 3, with cyclin E (CDK3, Homo sapiens, UniProt Q00526) | 93.6%
Tyrosine-protein kinase Fyn (FYN, Homo sapiens, UniProt P06241) | 100%
MAP/microtubule affinity-regulating kinase 3 (MARK3, Homo sapiens, UniProt P27448) | 126%
Insulin receptor (INSR, Homo sapiens, UniProt P06213) | 93.2%
cAMP-dependent protein kinase catalytic subunit PRKX (PRKX, Homo sapiens, UniProt P51817) | 98%
Tyrosine-protein kinase ITK/TSK (ITK, Homo sapiens, UniProt Q08881) | 96%
Serine/threonine-protein kinase N1 (PKN1, Homo sapiens, UniProt Q16512) | 104%
Serine/threonine-protein kinase TAO3 (TAOK3, Homo sapiens, UniProt Q9H2K8) | 105%
Megakaryocyte-associated tyrosine-protein kinase (MATK, Homo sapiens, UniProt P42679) | 98.2%
ALK tyrosine kinase receptor (ALK, Homo sapiens, UniProt Q9UM73) | 99.2%
Proto-oncogene tyrosine-protein kinase Src (SRC, Homo sapiens, UniProt P12931) | 99%
RAC-alpha serine/threonine-protein kinase (AKT1, Homo sapiens, UniProt P31749) | 95.8%
Tyrosine-protein kinase Fgr (FGR, Homo sapiens, UniProt P09769) | 92%

For quick reference, copied from above (block 4):
target | remaining activity
Tyrosine-protein kinase Fyn (FYN, Homo sapiens, UniProt P06241) | 100%
MAP/microtubule affinity-regulating kinase 3 (MARK3, Homo sapiens, UniProt P27448) | 126%
Insulin receptor (INSR, Homo sapiens, UniProt P06213) | 93.2%
cAMP-dependent protein kinase catalytic subunit PRKX (PRKX, Homo sapiens, UniProt P51817) | 98%
Tyrosine-protein kinase ITK/TSK (ITK, Homo sapiens, UniProt Q08881) | 96%
Serine/threonine-protein kinase N1 (PKN1, Homo sapiens, UniProt Q16512) | 104%
Serine/threonine-protein kinase TAO3 (TAOK3, Homo sapiens, UniProt Q9H2K8) | 105%
Megakaryocyte-associated tyrosine-protein kinase (MATK, Homo sapiens, UniProt P42679) | 98.2%
ALK tyrosine kinase receptor (ALK, Homo sapiens, UniProt Q9UM73) | 99.2%
Proto-oncogene tyrosine-protein kinase Src (SRC, Homo sapiens, UniProt P12931) | 99%
